Results from different studies.
“And” joins repeats or separate records; there may be more than shown. ± gives the spread as reported.

SMILES = CC(C)C[C@H](NC(=O)[C@@H](NC(=O)[C@H](CCCNC(=N)N)NC(=O)[C@H](CCC(N)=O)NC(=O)[C@H](Cc1ccccc1)NC(=O)[C@H](Cc1ccc(O)cc1)NC(=O)[C@H](CC(N)=O)NC(=O)[C@H](Cc1c[nH]c2ccccc12)NC(=O)[C@@H](NC(=O)[C@H](CCCNC(=N)N)NC(=O)[C@H](CCCCN)NC(=O)[C@@H](N)Cc1ccccc1)C(C)C)C(C)C)C(=O)N[C@H](C(=O)N[C@@H](CCCCN)C(=O)N[C@@H](CCCCN)C(=O)N[C@@H](Cc1ccc(O)cc1)C(N)=O)C(C)C; target or system = Listeria monocytogenes; test = broth dilution; system = KCTC 13064; quantity = MIC; value = 50 µM
SMILES = CCCCCCCC(=O)NCCCC[C@H](NC(=O)CCCCCCC)C(=O)N[C@@H](CCCCNC(=O)CCCCCCC)C(=O)NCC(=O)NCC(=O)NCC(=O)N[C@@H](CS)C(=O)N[C@@H](CCCNC(=N)N)C(=O)N[C@@H](CCCCN)C(=O)N1CCC[C@H]1C(=O)N[C@@H](CS)C(=O)N[C@@H](CCCNC(=N)N)C(=O)N[C@@H](CCCCN)C(=O)N1CCC[C@H]1C(=O)N[C@@H](CS)C(=O)N[C@@H](CCCNC(=N)N)C(=O)N[C@@H](CCCCN)C(=O)N1CCC[C@H]1C(N)=O; target or system = Candida albicans; test = broth microdilution; system = fluconazole-resistant 56214, RPMI-1640; setting = 48 h, 30 °C; quantity = MIC; value = 8 µM
SMILES = COc1ccc(C2=[N+]([O-])c3ccccc3N3CC(C)(C)CN=C23)cc1; target or system = Fusobacterium nucleatum; quantity = MIC; value = 0.25 to 1 µg/mL
SMILES = O=C1NC2(CC2)COc2ncc(F)cc2[C@H]2COCCN2c2ccn3ncc1c3n2; system = Sprague-Dawley rat, female, serum; setting = oral, 20 mg/kg/day, 4 weeks daily, end of treatment; quantity = potassium; value = 3.96 ± 0.51 mmol/L
SMILES = COc1ccccc1-c1n[nH]c2nc(NC3CCN(C(=O)Cc4ccc(F)cc4F)CC3)ncc12; test = bead binding, competition bead pull-down, refers to: LMJF.30.2550; system = Leishmania donovani axenic amastigote extract; setting = 10 µM; how to read = relative to: vehicle; quantity = relative abundance; value = 0.85
SMILES = CC(C)C[C@@H]1NC(=O)[C@@H](Cc2c[nH]c3ccccc23)NC(=O)[C@H](CCCNC(=N)N)NC(=O)[C@@H](CCC(=O)O)NC(=O)[C@H](CCC(N)=O)NC(=O)[C@@H](CCC(=O)O)NC(=O)[C@H](CCCNC(=N)N)NC(=O)[C@@H](Cc2c[nH]c3ccccc23)NC1=O; test = Luminex, refers to: IP-10 CXCL10; system = LDLr-/- mice, Western diet, liver; setting = dose not given, 4 weeks; quantity = cytokine level; value = 1200 ± 380 pg/g tissue
SMILES = C=C(NC(=O)c1csc(-c2nc3c(cc2O)-c2nc(cs2)C(=O)NC(C(C)O)C(=O)NC(=C(C)OC)c2nc(cs2)C(=O)NC2c4nc(cs4)C(=O)NC(COC(=O)c4c5c6c(cccc6n4O)COC(=O)C(OC4CC(C)(O)C(N(C)C)C(C)O4)C2OC5)c2nc-3cs2)n1)C(N)=O (stereo not shown); target or system = Staphylococcus aureus; system = MRSA strain 4; quantity = MIC; value = 0.0156 µg/mL
SMILES = CCCCCCCC(=O)NCCCC[C@H](NC(=O)CCCCCCC)C(=O)N[C@@H](CCCCNC(=O)CCCCCCC)C(=O)NCC(=O)NCC(=O)NCC(=O)N[C@@H](CS)C(=O)N[C@@H](CCCNC(=N)N)C(=O)N[C@@H](CCCCN)C(=O)N1CCC[C@H]1C(N)=O; target or system = Candida albicans; test = broth microdilution; system = 17546, RPMI-1640; setting = 48 h, 30 °C; quantity = MIC; value = > 128 µM
SMILES = CC[C@H](C)[C@H](N)C(=O)NCC(=O)N[C@@H](CC(C)C)C(=O)N[C@H](CCC(=O)O)C(=O)N[C@H](C(=O)N[C@H]1CCCCNC(=O)[C@H](CC(N)=O)NC(=O)[C@@H](CC(=O)O)NC(=O)[C@H](Cc2c[nH]cn2)NC(=O)[C@@H](Cc2ccccc2)NC(=O)[C@H]([C@@H](C)CC)NC(=O)[C@@H](CCCN)NC1=O)[C@@H](C)CC; target or system = Staphylococcus simulans; system = 22; setting = 18 h, 37 °C, 0.3 mM ZnSO4 LB; quantity = MIC; value = > 64 µg/mL
SMILES = Cc1cc(C(=O)Nc2nc3cccc(C)c3n2[C@H]2CCCCN(C(=O)/C=C/CN(C)C)C2)ccn1; target or system = Trypanosoma brucei brucei; system = 2T1 parental; setting = 10 x EC50, 48 h; how to read = relative to: time 0 h; quantity = cell growth; value = 15.3% and 16.3% and 17.3%
SMILES = CCCCCCCCCCCC(=O)NCCCC[C@H](NC(=O)CCCCCCCCCCC)C(=O)N[C@@H](CCCCNC(=O)CCCCCCCCCCC)C(=O)NCC(=O)NCC(=O)NCC(=O)N[C@@H](CS)C(=O)N[C@@H](CCCNC(=N)N)C(=O)N[C@@H](CCCCN)C(=O)N1CCC[C@H]1C(=O)N[C@@H](CS)C(=O)N[C@@H](CCCNC(=N)N)C(=O)N[C@@H](CCCCN)C(=O)N1CCC[C@H]1C(N)=O; target or system = Candida albicans; test = broth microdilution; system = 56452, RPMI-1640; setting = 48 h, 30 °C; quantity = MIC; value = > 128 µM
SMILES = C=C1NC(=O)C2C[S+]([O-])CC3NC(=O)C(CSC(C)C(NC(=S)C(Cc4cnc[nH]4)NC(=O)c4csc(C(C)NC(C)=O)n4)C(=O)N[C@H](CC(C)C(=O)NC(=O)CC(C(=O)O)NC(=O)C(C)NC3=O)C(=O)N2)NC(=O)[C@@H]2CCCN2C(=O)[C@@H](CC(C)C)NC1=O (stereo partly shown); target or system = Candida glabrata; test = EUCAST broth microdilution; system = clinical isolate, RPMI 1640 MOPS-buffered 2% glucose; setting = 48 h, pH 7.0, 24 °C; quantity = MIC; value = > 32 µg/mL
SMILES = CC(=O)N[C@@H](CC(C)C)C(=O)N[C@H]1CSSC[C@@H](C(=O)N2CCC[C@H]2C(N)=O)NC(=O)[C@H]([C@@H](C)O)NC(=O)[C@H](C(C)C)NC(=O)[C@H]([C@@H](C)O)NC(=O)CNC(=O)[C@H](CC(C)C)NC(=O)[C@H](Cc2ccccc2)NC(=O)[C@H](Cc2ccc(O)cc2)NC(=O)[C@H](CC(C)C)NC(=O)[C@H](CCCCN)NC(=O)[C@H](Cc2ccccc2)NC(=O)[C@H](CCCNC(=N)N)NC(=O)[C@H](CCCCN)NC(=O)[C@H](CC(C)C)NC(=O)[C@H](CCCCN)NC(=O)[C@@H]2CCCN2C(=O)[C@H](CCCCN)NC(=O)[C@H](C(C)C)NC(=O)[C@H](CC(N)=O)NC(=O)[C@H](Cc2ccc(O)cc2)NC(=O)[C@H]([C@@H](C)O)NC1=O; target or system = Aeromonas hydrophila; test = broth dilution; setting = 24 h; quantity = MIC; value = 2.5 to 5 µM
SMILES = CCCCCCCCCC(=O)NCCCC[C@H](NC(=O)CCCCCCCCC)C(=O)N[C@@H](CCCCNC(=O)CCCCCCCCC)C(=O)NCC(=O)NCC(=O)NCC(=O)N[C@@H](CS)C(=O)N[C@@H](CCCNC(=N)N)C(=O)N[C@@H](CCCCN)C(=O)N1CCC[C@H]1C(=O)N[C@@H](CS)C(=O)N[C@@H](CCCNC(=N)N)C(=O)N[C@@H](CCCCN)C(=O)N1CCC[C@H]1C(N)=O; target or system = Candida albicans; test = broth microdilution; system = 56452, RPMI-1640; setting = 48 h, 30 °C; quantity = MIC; value = 32 µM
SMILES = CN[C@H](CC(C)C)C(=O)N[C@H]1C(=O)N[C@@H](CC(N)=O)C(=O)N[C@H]2C(=O)N[C@H]3C(=O)N[C@H](C(=O)N[C@H](C(=O)O)c4cc(O)cc(O)c4-c4cc3ccc4O)[C@H](O)c3ccc(c(Cl)c3)Oc3cc2cc(c3O[C@@H]2O[C@H](CO)[C@@H](O)[C@H](O)[C@H]2O[C@H]2C[C@](C)(NCc3ccc(OCc4cn(CCCCC(=O)N[C@H](C(=O)N[C@@H](CCN)C(=O)N[C@H]5CCNC(=O)[C@H]([C@@H](C)O)NC(=O)[C@H](CCN)NC(=O)[C@H](CCN)NC(=O)[C@H](CC(C)C)NC(=O)[C@@H](CC(C)C)NC(=O)[C@H](CCN)NC5=O)[C@@H](C)O)nn4)c(OC)c3)[C@H](O)[C@H](C)O2)Oc2ccc(cc2Cl)[C@H]1O; target or system = Staphylococcus simulans; test = broth microdilution; system = 22, cation-adjusted Mueller-Hinton broth; quantity = MIC; value = 0.006 µM
SMILES = CCCCCCCCCCCCCC(=O)N[C@H]1C(=O)N[C@@H](CN)C(=O)N[C@@H](CO)C(=O)N[C@@H](Cc2ccc(O)cc2)C(=O)O[C@H]1C; target or system = Staphylococcus aureus; system = SH1000; setting = together with: phosphatidylethanolamine, molar ratio 0.5; quantity = MIC; value = 2 µg/mL
SMILES = Cc1cc(Oc2nc(N3CC[C@@H](c4ccncc4)C3)ncc2F)[nH]n1; target or system = Mycobacterium tuberculosis; system = THP-1, H37Rv non-replicating; setting = 30 µM, day 4; quantity = normalised growth; value = 47.2% and 30.2%
SMILES = CC(C)CCCCCCCCC/C=C/C(=O)N[C@@H](CC(=O)O)C(=O)N[C@H]1CNC(=O)[C@@H]2CCCN2C(=O)[C@H](C(C)C)NC(=O)[C@@H](CN)NC(=O)CNC(=O)[C@H](CC(=O)O)NC(=O)CNC(=O)[C@H](CC(=O)O)NC(=O)[C@H](CC(=O)O)NC(=O)[C@H]2CCCCN2C1=O; target or system = Staphylococcus simulans; test = broth microdilution; system = 22, Mueller-Hinton broth, Mg2+ 10 mg/L; setting = 16 h, 30 °C, together with: Ca2+ 10 mM; quantity = MIC; value = 2 µg/mL
SMILES = CC(C)(C)C(=O)OCOP(=O)(OCOC(=O)C(C)(C)C)C1CCCN(O)C1=O (stereo not shown); target or system = NCI-60 cell line panel; quantity = Log10GI50 mean; value = -6.27 log M

For quick reference, copied from above:
SMILES = O=C1NC2(CC2)COc2ncc(F)cc2[C@H]2COCCN2c2ccn3ncc1c3n2; system = Sprague-Dawley rat, female, serum; setting = oral, 20 mg/kg/day, 4 weeks daily, end of treatment; quantity = potassium; value = 3.96 ± 0.51 mmol/L
SMILES = CCCCCCCC(=O)NCCCC[C@H](NC(=O)CCCCCCC)C(=O)N[C@@H](CCCCNC(=O)CCCCCCC)C(=O)NCC(=O)NCC(=O)NCC(=O)N[C@@H](CS)C(=O)N[C@@H](CCCNC(=N)N)C(=O)N[C@@H](CCCCN)C(=O)N1CCC[C@H]1C(=O)N[C@@H](CS)C(=O)N[C@@H](CCCNC(=N)N)C(=O)N[C@@H](CCCCN)C(=O)N1CCC[C@H]1C(=O)N[C@@H](CS)C(=O)N[C@@H](CCCNC(=N)N)C(=O)N[C@@H](CCCCN)C(=O)N1CCC[C@H]1C(N)=O; target or system = Candida albicans; test = broth microdilution; system = fluconazole-resistant 56214, RPMI-1640; setting = 48 h, 30 °C; quantity = MIC; value = 8 µM
